Published values pooled from the literature.
Numbers after ± are the reported error.

O=C(O)c1nn(Cc2ccc(Cl)cc2Cl)c2ccccc12
IC50 (uncoupled glutamate oxidation, inhibitor, oxygen electrode; rat heart mitochondria): ~20 µM

kanamycin A
IC50 (phenylalanine incorporation, poly(U)-directed cell-free translation; Mycolicibacterium smegmatis wild-type 70S ribosomes; 60 min, 37 °C): 2.5 µM

CC(C=CC1(C)C(C)CCC(=O)C1C)=CCc1c(O)c(C=O)c(C)c(Cl)c1OCC(=O)O (centres unmarked)
IC50 (succinate-dependent oxygen uptake, inhibitor; rat liver mitochondria; with: succinate 15 mM): 4.1 µM

glutathione
IC50 (DPPH radical scavenging; 30 min): < 15000 ng/mL

CCN[C@@H]1C[C@H](N)[C@@H](O[C@H]2OC(CN)=CC[C@H]2N)[C@H](O)[C@H]1O[C@H]1OC[C@](C)(O)[C@H](NC)[C@H]1O
IC50 ([14C]-phenylalanine incorporation, inhibitor, (UUU)12-directed cell-free translation; Mycolicibacterium smegmatis wild-type 70S ribosomes; 60 min, 37 °C): 0.7 µM

CC(=O)Oc1ccc(/C=C\C(=O)Nc2ccc(S(=O)(=O)Nc3ncccn3)cc2)cc1OC(C)=O
IC50 (DPPH radical scavenging; ethanol; 30 min): 260 µM

O=C1O[C@H]([C@@H](O)CO)C(O)=C1O
IC50 (DPPH radical scavenging; 30 min): 3.4 µM

NC[C@H]1O[C@H](O[C@H]2[C@H](O)[C@@H](O[C@H]3O[C@H](CO)[C@@H](O)[C@H](N)[C@H]3O)[C@H](N)C[C@@H]2N)[C@H](N)C[C@@H]1O
IC50 ([14C]-phenylalanine incorporation, inhibitor, (UUU)12-directed cell-free translation; Mycolicibacterium smegmatis wild-type 70S ribosomes; 60 min, 37 °C): 1 µM

O=C1O[C@H]([C@@H](O)CO)C(O)=C1O
IC50 (nitric oxide scavenging): 38.9 ± 2.5 µM

CC(/C=C/[C@@]1(C)[C@H](C)CCC(=O)[C@@H]1C)=C\Cc1c(O)c(Cl)c(C)c(C=O)c1O
IC50 (succinate-dependent oxygen uptake, inhibitor; rat liver mitochondria; with: succinate 15 mM): 0.013 µM

COc1cnc(NS(=O)(=O)c2ccc(NC(=O)/C=C\c3ccc(O)c(O)c3)cc2)nc1
IC50 (DPPH radical scavenging; ethanol; 30 min): 39.4 µM

Oc1cc(O)cc(/C=C/c2ccc(O)c(O)c2)c1
IC50 (superoxide scavenging; PMS-NADH system; pH 10.0): 9 ± 2 µM

COc1cccc(NC(=O)c2cc(-c3ccc(CC4C(=O)N(c5cccc(C(=O)O)c5)N=C4C)o3)ccc2Cl)c1 (centres unmarked)
IC50 (non-homologous end joining, inhibitor; HEK293 cell-free extract; with: linearized plasmid): ~15 µM

CC(C=CC1(C)C(C)CCC(=O)C1C)=CCc1c(O)c(C=O)c(C)c(Cl)c1OC(=O)c1cccnc1 (centres unmarked)
IC50 (succinate-dependent oxygen uptake, inhibitor; rat liver mitochondria; with: succinate 15 mM): 0.08 µM

CC(=O)Oc1ccc(/C=C\C(=O)Nc2ccc(S(N)(=O)=O)cc2)cc1OC(C)=O
IC50 (DPPH radical scavenging; ethanol; 30 min): 223 µM

COC1C(O)[C@@H](COP(=O)(O)OP(=O)([S-])OP(=O)(O)OP(=O)(O)OC[C@H]2O[C@@H](n3cnc4c(=O)[nH]c(N)nc43)C(O)C2O)O[C@H]1n1c[n+](C)c2c(O)nc(N)nc21 (mixture of isomers)
IC50 (cap-dependent translation, inhibitor; rabbit reticulocyte lysate): 2.6 ± 0.3 µM

CC1(C)CC(N)CC(C)(C)N1.Cc1c(C)c2c(c(C)c1O)CCC(C)(C(=O)O)O2 (centres unmarked)
IC50 (DPPH radical scavenging; methanol; 10 min, with: DPPH 70 µM): 66 µM

Cn1cc(Nc2nccc(-c3ccc4c(c3)CN(C3COC3)CC[C@H]4NC(=O)c3cn(C(C)(C)C)nn3)n2)cn1
IC50 (measured: CD69; CD19+ B cells, multiple sclerosis patients, whole blood; with: anti-IgD): 0.151 ± 0.076 µM

CCCCCCCCCCCCCCSC[C@H]1O[C@H](O[C@@H]2[C@@H](O)[C@H](O[C@H]3O[C@H](CN)[C@@H](O)C[C@H]3N)[C@@H](N)C[C@H]2N)[C@H](O)[C@@H](N)[C@@H]1O
IC50 (luciferase reporter translation; Escherichia coli cell lysate): > 0.147 µM

Cc1c(CN2CCN(C(=O)[C@H](C)O)CC2)sc2c(N3CCOCC3)nc(-c3cnc(N)nc3)nc12
IC50 (measured: pAkt; patients with advanced solid tumours, platelet-rich plasma; typical patient, PK-PD model): 9.32 ng/mL

Nc1nc(=O)c2nc(CNc3ccc(C(=O)N[C@@H](CCC(=O)O)C(=O)O)cc3)cnc2[nH]1
IC50 (cap-dependent translation; rabbit reticulocyte lysate; 1 h preincubation, with: capped luciferase mRNA): > 500 µM

C=C1[C@@H](O)C[C@H]2C(C)(C)C[C@H](Cl)C[C@]2(C)[C@H]1C[C@H](O)[C@H]1CC(=O)NC1=O
IC50 (translation, inhibitor, measured: firefly luciferase reporter; Krebs-2 cell lysate): ~0.5 µM

COc1cnc(NS(=O)(=O)c2ccc(NC(=O)/C=C\c3ccc(OC(C)=O)c(OC(C)=O)c3)cc2)nc1
IC50 (DPPH radical scavenging; ethanol; 30 min): 798 µM

Excerpt of the above:
O=C1O[C@H]([C@@H](O)CO)C(O)=C1O
IC50 (nitric oxide scavenging): 38.9 ± 2.5 µM

NC[C@H]1O[C@H](O[C@H]2[C@H](O)[C@@H](O[C@H]3O[C@H](CO)[C@@H](O)[C@H](N)[C@H]3O)[C@H](N)C[C@@H]2N)[C@H](N)C[C@@H]1O
IC50 ([14C]-phenylalanine incorporation, inhibitor, (UUU)12-directed cell-free translation; Mycolicibacterium smegmatis wild-type 70S ribosomes; 60 min, 37 °C): 1 µM
